# Published values gathered from unrelated publications.
# Every numbered part comes from another study and shows a few of its results, in no order.

# Series 1
# Target: Sal-like protein 4, full length isoform B (SALL4, Homo sapiens, UniProt Q9UJQ4-2, residues 1-616)
# Technique: universal PBM
# Molecule type: double-stranded DNA, one strand shown
# Medium: in vitro
# Concentration: not given
# Setting: 8-mer, flanks averaged, mean of replicates
# Direction: higher = stronger binding
Strand,E-score
CCATAGAA,0.0707
ACTTCTAA,0.00657
CCGTACAA,0.059
CAGCATCC,-0.214

# Series 2
# Target: RING finger protein unkempt homolog, zinc fingers 1-6, GST-SBP tag (UNK, Homo sapiens, UniProt Q9C0B0, residues 30-357)
# Chain of UniProt Q9C0B0 (30-357, looked up): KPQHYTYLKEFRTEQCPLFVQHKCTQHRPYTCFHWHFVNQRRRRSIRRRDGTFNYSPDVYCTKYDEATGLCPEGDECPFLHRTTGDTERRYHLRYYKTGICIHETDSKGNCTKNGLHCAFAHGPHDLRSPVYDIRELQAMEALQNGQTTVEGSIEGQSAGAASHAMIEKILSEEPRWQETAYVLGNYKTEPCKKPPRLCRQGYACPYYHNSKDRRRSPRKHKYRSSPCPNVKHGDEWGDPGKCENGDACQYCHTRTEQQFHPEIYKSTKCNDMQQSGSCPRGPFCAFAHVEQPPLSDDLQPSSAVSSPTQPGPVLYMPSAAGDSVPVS
# Technique: RNA Bind-n-Seq
# Molecule type: RNA
# Medium: in vitro
# Concentration: not given
# Setting: RNA with constant flanks, human and mouse sites, ends assumed
# Relative to: input RNA pool
# Direction: higher = stronger binding
Strand,bound/input enrichment [ratio]
GGGAGUUCUACAGUCCGACGAUCAGCACUGAGAGCAGUCCAUCCAUUGCCACAGUAUGUCAUAGUGAGGAAGUCAGGGAGACCUUAGAAAGCAAUACAAACCUUCAUAAUCGCACUGAGACAGAGCAUACUCCAGCAGUUUGUCAACAGAGGAUUGAGCAUCA,0.435
GGGAGUUCUACAGUCCGACGAUCUUCCUCCUGAGCCAUGAGCAGUUUGAGCUUACAACACAGACCUGGCAGGAAUUCCCAGAUGAAUCAAGAAAGUAGCUUGCAACCCCAGGAGUGUGAAUCUGAUGUCUCUGCAGAUCACUUCAACAGAGGAUUGAGCAUCA,0.213
GGGAGUUCUACAGUCCGACGAUCUAUUUUGUAAAUACUGUAUACCAUGUAUUAUGUGUACAUUGUUCAUACUUGAGAGGACAUUAUAGUUUUGUUAUGAAAGUAUGUAUUUUGCCCUGCAGCUGUGGUGGUGUUUUGUAUAUACAACAGAGGAUUGAGCAUCA,0.424

# Series 3
# Target: Interferon regulatory factor 5, full length, phosphomimetic (IRF5, Homo sapiens, UniProt Q13568-2, residues 1-514, K96S/S451D/S453D/S456D/S462D)
# Technique: protein-binding microarray
# Molecule type: double-stranded DNA, one strand shown
# Medium: in vitro
# Concentration: 250 nM
# Setting: 60-bp whole probe
# Together with: salmon DNA 0.4 mg/ml
# Relative to: random background probes
# Direction: higher = stronger binding
# All sequences stand within: GCCTAGCAC … GTCTTGATTCGCTTGACGCTGCTG
Strand,log fluorescence [z-score]
TTATGACTGCTTTTCCTTTAGTGCTAG,0.674
TAAGGTATCGACTTTCGGTTAGTGCTA,10
AGCCGTCTCCACCTGGGCAAGTGCTAG,-0.599
TCAGGCCTCTTGCTCAGACTGTGCTAG,-0.688
GACGGTAGCGGGACTGGGGACGTGCTA,-0.251

# Other studies, line by line
Molecule,target,test,test system,setting,how to read,endpoint,result
"PhoQ, residues 284 288 289 292 302 303 ASHLAV","PhoP, residues 12 14 15 18 19 LWHVM (Escherichia coli, UniProt P23836)","Sort-seq, item: YFP reporter",E. coli,"PhoQ-PhoP variant library, together with: 10 µM Mg2+","relative to: high Mg2+ state, higher = stronger signaling",fold induction,2.73

# Excerpt of the above (series 1):
Strand,E-score
ACTTCTAA,0.00657
